# Experimental data gathered from unrelated publications.
# Protocols differ between the studies behind these lines. Numbers after ± are the reported error.
Molecule,test,test system,setting,how to read,measurement,result
C[C@H]1C[C@H]2CSC(N)=N[C@@]2(c2nc(NC(=O)c3ccc(OC(F)F)cn3)cs2)CO1,measured: plasma Aβ1-40,human,"540 mg single dose, 48 h",relative to: placebo,maximum reduction,90.3%
Cc1cc(C(C)(C)C)c(O)c(C(C)(C)C)c1,,,100 µg/mL,,DPPH radical scavenging,76.7%
CS/C(S)=N/CCCC[S+](C)[O-] (racemic),"RT-PCR, measured: Nqo1","rat, liver","oral gavage, 200 mg/kg, 96 h, dosed for four days",relative to: vehicle,mRNA fold change,1.26
Cn1cnc2ncn(Cc3nc(CCc4ccc(Cl)cc4)no3)c(=O)c21,Randall-Selitto,"rat, CFA inflammatory pain","300 mg/kg, 2 h",,paw withdrawal threshold,87.6 ± 4.4 g
Cc1c(C(=O)Nc2ccc(N3C[C@@H](C)O[C@@H](C)C3)nc2)cccc1-c1ccc(OC(F)(F)F)cc1,"cell growth, 3H-thymidine uptake","Gli2-amplified resistant medulloblastoma cells, Gli2 siRNA knock-down, mouse",ex vivo,,IC50,100 nM
eptifibatide,,"C57BL/6 mice, LPS-induced thrombocytopenia","retro-orbital, 5 mg/kg, 2 and 4 h, with: LPS 12 mg/kg i.p.",,platelet count,no effect
O=C(NC[C@H]1CN(c2ccc(N3CCOCC3=O)cc2)C(=O)O1)c1ccc(Cl)s1,,"human, moderate renal impairment","10 mg, with: steady-state erythromycin","relative to: same subjects, compound alone",prothrombin time Emax increase,~20%
Cn1cc(Nc2nccc(-c3ccc4c(c3)CN(C3COC3)CC[C@H]4NC(=O)c3cn(C(C)(C)C)nn3)n2)cn1,measured: CD69,"B cells, mouse, whole blood",with: anti-IgD,,IC50,57 ± 33 nM
Cc1[nH]c2ccccc2c1CCNCc1ccc(/C=C/C(=O)NO)cc1,,high-risk AML patients,"15 mg, with: idarubicin and cytarabine",,discontinuation due to progression,9.1%
Cc1ccc(NC(=O)c2ccc(CN3CCN(C)CC3)cc2)cc1Nc1nccc(-c2cncc(-c3oncc3C)c2)n1,,mild-to-moderate Parkinson's disease patients,"oral, 100 mg once daily, pre-dose baseline, on anti-Parkinson medication",direction not given,PDQ-39 score,15.3 ± 9.1
CCCOc1ccc(S(=O)(=O)NCCC2CCCN2C)cc1-c1nc2c(CCC)nn(C)c2c(=O)[nH]1 (stereo not drawn),blood pool echocardiography,human adolescents after Fontan palliation,"oral, 87.5 mg once daily, day 5","relative to: baseline, negative is improvement",change in myocardial performance index,-0.076 ± 0.14
Cc1c(OCC(F)(F)F)ccnc1C[S@@+]([O-])c1nc2ccccc2[nH]1,,healthy humans,"oral, 60 mg, 0 to 12 h postdose, pH 4 threshold, single dose",,time with intragastric pH above threshold,56%
O=C(O)c1ccc(O)c(O)c1,,"Sprague-Dawley rat, common carotid artery","dose not given, 5 days twice daily, shear-induced thrombosis",,thrombus protein content,51 ± 39 µg
CN(C)C(=O)N[C@H]1CC[C@H](CCN2CCN(c3cccc(Cl)c3Cl)CC2)CC1,open field,"Sprague-Dawley rat, ouabain mania model","intraperitoneal, 0.25 mg/kg, 1 h pretreatment, 30 min observation, with: ouabain i.c.v.",,locomotor activity,72.7 ± 11.7 squares crossed
cotadutide,mixed-meal tolerance test,"human, type 2 diabetes, CKD","subcutaneous, 50 to 300 µg once daily, day 32",relative to: baseline,change in glucose AUC(0-4h),-26.7%
COc1ccc(-n2c(SC/C(=N/O)c3ccc(C)cc3)nnc2-c2nnn(-c3ccc(S(N)(=O)=O)cc3)c2C)cc1,Griess,phosphate buffer-methanol,"100 µM, 1 h, pH 7.4, 37 °C, with: N-acetylcysteine 0.5 mM",relative to: theoretical maximum release,NO released,2.87%
CCCCC/C=C\C/C=C\CCCCCCCCP(=O)(OCC)OCC,,mouse,"lingual, dose not given, with: linoleic or oleic acid",relative to: fatty acid alone,chorda tympani nerve response,increased
CCCn1cnc(C[C@H](NC(=O)[C@@H]2CCC(=O)C2)C(=O)N2CCC[C@H]2C(N)=O)c1,,Swiss albino mice,"intravenous, 10 µmol/kg, with: pentobarbital",relative to: control,decrease in sleeping time,61.6%
CC(C)C[C@H](NC(=O)[C@H](CO)NC(=O)[C@H](CCCNC(=N)N)NC(=O)[C@H](CC(=O)O)NC(=O)[C@H](CCC(=O)O)NC(=O)[C@H](C)NC(=O)[C@@H]1CCCN1C(=O)[C@H](C)NC(=O)[C@H](CCC(=O)O)NC(=O)[C@@H]1CCCN1C(=O)[C@@H]1CCCN1)C(N)=O,measured: tyrosine hydroxylase,"rat F344, unilateral 6-OHDA lesion, lesioned SNpc middle, -5.60 mm from bregma","intranasal, 300 µg daily",,TH+ neuron number,29 ± 5
Cc1cc(C)c(/C=C2\C(=O)Nc3ccccc32)[nH]1,MRI,human,"concentration not given, 7.0 months",,tumour area,1.31 cm²
COc1ccc(/C(CSc2nnc(-c3nnn(-c4ccc(S(N)(=O)=O)cc4)c3C)n2-c2ccc(OC)cc2)=N\O)cc1,Griess,phosphate buffer-methanol,"100 µM, 1 h, pH 7.4, 37 °C, with: N-acetylcysteine 0.5 mM",relative to: theoretical maximum release,NO released,2.55%
cilengitide,,"Sprague-Dawley rats, ethanol control, colonic smooth muscle cells","ip, 18 mg/kg/day, 42 d",,active TGF-β1 level,0.94 ± 0.015 ng/mg protein
C=CCOC(=O)CCC(=O)Oc1ccc(/C=C/C(=O)/C=C(O)/C=C/c2ccc(OC(=O)CCC(=O)OCC=C)c(OC)c2)cc1OC,"IL-6 secretion, ELISA","peritoneal macrophages, C57BL/6 mice",with: LPS 10 ng/mL,,IC50,14200 ± 12800 nM
COc1ccc2c(c1)c(CC(=O)O)c(C)n2C(=O)c1ccc(Cl)cc1,"multiplex bead immunoassay, measured: GM-CSF","CD-1 mice, serum","ip, 20 mg/kg, three-injection regimen, with: LPS 3 mg/kg",,cytokine level,57.9 ± 20.8 pg/mL
CC[C@H](C)[C@H](NC(=O)[C@H](CCC(N)=O)NC(=O)[C@H](Cc1c[nH]cn1)NC(=O)[C@H](C)NC(=O)[C@H](CC(C)C)NC(=O)[C@H](CCCCN)NC(=O)[C@H](CCC(N)=O)NC(=O)[C@@H](NC(=O)[C@@H](NC(=O)[C@@H]1CSSC[C@H](NC(=O)CNC(=O)[C@H](Cc2ccccc2)NC(=O)[C@H](CO)NC(=O)[C@H](CCCNC(=N)N)NC(=O)[C@H](CC(C)C)NC(=O)CNC(=O)[C@H](CCC(N)=O)NC(=O)[C@H](Cc2ccccc2)NC(=O)[C@H](CC(N)=O)NC(=O)[C@H](CC(N)=O)NC(=O)[C@H](CCSC)NC(=O)[C@H](CO)NC(=O)[C@H](CCC(N)=O)NC(=O)[C@H](CCCNC(=N)N)NC(=O)[C@@H](N)Cc2ccc(O)cc2)C(=O)N[C@@H](CCCNC(=N)N)C(=O)N[C@@H](Cc2ccccc2)C(=O)NCC(=O)N[C@@H]([C@@H](C)O)C(=O)N1)[C@@H](C)O)C(C)C)C(=O)N[C@@H](Cc1ccc(O)cc1)C(=O)N[C@@H](CCC(N)=O)C(=O)N[C@@H](Cc1ccccc1)C(=O)N[C@H](C(=O)N[C@@H](CC(=O)O)C(=O)N[C@@H](CCCCN)C(=O)N[C@@H](CC(=O)O)C(=O)N[C@@H](CCCCN)C(=O)N[C@@H](CC(=O)O)C(=O)N[C@@H](CC(N)=O)C(=O)N[C@H](C(=O)N[C@@H](C)C(=O)N1CCC[C@H]1C(=O)N[C@@H](CCCNC(=N)N)C(=O)N[C@@H](CO)C(=O)N[C@@H](CCCCN)C(=O)N[C@H](C(=O)N[C@@H](CO)C(=O)N1CCC[C@H]1C(=O)N[C@@H](CCC(N)=O)C(=O)NCC(=O)N[C@@H](Cc1ccc(O)cc1)C(N)=O)[C@@H](C)CC)C(C)C)[C@@H](C)O,,"patients, biologic-resistant Crohn's disease","intravenous infusion, 15 ng/kg/min, 4 weeks, unit not given, with: biologic",relative to: baseline,change in CDAI,-64 ± 81
O=C(/C=C/c1cc(O)ccc1O)c1ccc(O)c(O)c1,,ethanol,"20 µM, 30 min",,DPPH scavenging,> 80%
SIIVFEKL,"flow cytometry, measured: CD44hi CD8+ T cells","peptide, OT-I CD8+ T cells, mouse","1 µg/mL loading, primed 5 days, TGF-β1 from day 2 onward, with: 20 ng/mL TGF-β1",,triple cytokine producers,24.7%
CC1(C)CC[C@]2(NC(=O)C(C)(F)F)CC[C@]3(C)[C@H](C(=O)C=C4[C@@]5(C)C=C(C#N)C(=O)C(C)(C)[C@@H]5CC[C@]43C)[C@@H]2C1,IFN-γ ELISPOT,"EL4 tumour-bearing mice, spleen","oral, 1 mg/kg daily, 13 days, with: PNT-S peptide pool",relative to: untreated,CD8+ T cell response,~5 fold
insulin aspart,euglycemic clamp,healthy humans,"subcutaneous, 0.2 IU/kg, 0 to 8 h, after propensity score matching",,glucose infusion AUC,1440 ± 397 mg/kg
bovine insulin,blood glucose lowering,Sprague-Dawley rats,"intestinal closed loop, 50 IU/kg",relative to: s.c. 1.0 IU/kg,pharmacological availability,0.56 ± 0.44%
PACAP,,"APP V717I transgenic mouse, male","intranasal, 10 µg daily, 3 months",,full-length APP level,no effect
Polymyxin B,,human whole blood,"50 ng/mL, 4 h, 37 °C, with: E. coli LPS 0.5 ng/mL",relative to: LPS without compound,IL-8 release,59.1 ± 19.4%
CC1(C)CCC(c2ccc(Cl)cc2)=C(CN2CCN(c3ccc(C(=O)NS(=O)(=O)c4ccc(N[C@H](CCN5CCOCC5)CSc5ccccc5)c(S(=O)(=O)C(F)(F)F)c4)cc3)CC2)C1,"cell kill, PI exclusion flow cytometry","normal CD21+ B lymphocytes, dog, peripheral blood",24 h,,EC50,1220 ± 1080 nM
SIYNFEKL,"flow cytometry, measured: CD44hi CD8+ T cells","peptide, OT-I CD8+ T cells, mouse","dose not given, primed 5 days, TGF-β1 from day 2 onward, with: 20 ng/mL TGF-β1",,TNF-α only cells,0.06%
N=C(N)c1ccc(OCCCCCCCOc2ccc(C(=N)N)cc2)cc1,measured: Atp2a1 exon 22,"HSA^LR mouse, DM1 model","ip, 30 mg/kg/day, 7 d",,exon inclusion,62 ± 4%
CCOC(F)(F)c1nnc2cnc(-c3cnc(OCC(F)(F)F)c(F)c3)cn12,"protection against tonic extension seizures, maximal electroshock seizure test",male CD-1 mice,oral,,ED50,2 mg/kg
